# Experimental data from different studies.
# ± marks the error that the study gave.
Molecule,organism,test,test system,setting,how to read,quantity,value
Cc1ccc(S(=O)(=O)N2C(=O)CSC2c2cccc(Cl)c2)cc1 (centres unmarked),Streptococcus pneumoniae,broth microdilution,ATCC 49619,,,MIC,8 µg/mL
O=C(Nc1ccc(Cl)cc1)N1CCN(c2ccc3nncn3n2)CC1,Cryptosporidium parvum,,HCT-8,corrected for mouse protein binding,,EC90,2800 nM
Cc1[nH]c2ccccc2c(=O)c1CC=C(Cl)Cl,Trypanosoma cruzi,imaging,"3T3 fibroblasts, amastigote",48 h,,IC50,1230 ± 610 nM
O=C(Nc1ccc(NCc2ccccc2)cc1Cl)c1cc(Cl)ccc1O,human respiratory syncytial virus,infectious progeny production,A549,"10 µM, 15 h",reference: vehicle,virus titre log reduction,~1.5 log10
Clc1nc(OCc2ccccc2)c2[nH]cnc2n1,Helicobacter pylori,"microbial growth, absorbance",26695,350 µM,,inhibition,~75%
O=C(Cn1ccnc1[N+](=O)[O-])NCc1ccccc1,Trypanosoma cruzi,parasite growth,,"72 h, epimastigote",,IC50,9500 nM
O=C(N[C@H](Cc1c[nH]c2ccccc12)C(=O)Nc1ccncc1)c1ccc(-c2ccc(F)c(C(F)(F)F)c2)cc1F,Trypanosoma cruzi,,"Y luc, mouse","oral, 50 mg/kg twice daily, 4 days, vehicle 20% Solutol",,parasite inhibition,> 90%
O=C1CSC(=S)N1/N=C/c1cn(Cc2ccccc2)c2ccc([N+](=O)[O-])cc12,Trypanosoma brucei gambiense,,"trypomastigotes, IL1922",,,IC50,> 60000 nM
CC1(C)S[C@@H]2[C@H](NC(=O)[C@H](N)c3ccc(O)cc3)C(=O)N2[C@H]1C(=O)O,Streptococcus pneumoniae,,community-acquired pneumonia patients,Fine score below 70,,sensitive strains,66.7%
Cc1ccc(S(=O)(=O)N2C(=O)CSC2c2ccc(Cl)cc2)cc1 (centres unmarked),Streptococcus pneumoniae,broth microdilution,ATCC 49619,,,MIC,32 µg/mL
C[C@@H]1CN(c2c(F)c(N)c3c(=O)c(C(=O)O)cn(C4CC4)c3c2F)C[C@H](C)N1,Litomosoides sigmodontis,,mouse,"i.p., 25 mg/kg/day for 10 days",,worm length reduction,28.6%
COc1c(Cl)c(C)c(C=O)c(O)c1C/C=C(C)/C=C/[C@@]1(C)[C@H](C)CCC(=O)[C@@H]1C,Wickerhamomyces anomalus,"O2 uptake, inhibitor",mitochondria,together with: succinate 15 mM,,IC50,4800 nM
CO/N=C(\C(=O)N[C@@H]1C(=O)N2C(C(=O)O)=C(CSc3nc(=O)c(=O)[nH]n3C)CS[C@H]12)c1csc(N)n1,Staphylococcus aureus,checkerboard broth microdilution,ATCC 27853,together with: ranalexin,,FIC index,1
N=C(N)c1ccc(-c2cncc(-c3ccc(C(=N)N)nc3)n2)cn1,Trypanosoma brucei rhodesiense,,"STIB900, mouse, acute infection","intraperitoneal, 5 mg/kg daily, 4 days, parasite-free survival 60 days",,cured mice,25%
CC(C=CC1(C)C(C)CCC(=O)C1C)=CCc1c(O)c(C=O)c(C)c(Cl)c1OCC(=O)O (centres unmarked),Wickerhamomyces anomalus,"O2 uptake, inhibitor",mitochondria,together with: NADH 1 mM,,IC50,44000 nM
CCN(CC)CCOc1ccc(-c2nc3ccc(F)cc3[nH]2)cc1F,Enterococcus faecalis,"microbial growth, broth dilution",ATCC29212,,,MIC,> 256 µg/mL
CC[C@H]1OC(=O)[C@H](C)[C@@H](O[C@H]2C[C@@](C)(OC)[C@@H](O)[C@H](C)O2)[C@H](C)[C@@H](O[C@@H]2O[C@H](C)C[C@H](N(C)C)[C@H]2O)[C@](C)(OC)C[C@@H](C)C(=O)[C@H](C)[C@@H](O)[C@]1(C)O,Staphylococcus aureus,checkerboard broth microdilution,clinical isolate 21-99,together with: magainin II,,FIC index,0.75
N/C(=N\O)c1ccc(-c2cncc(-c3ccc(/C(N)=N\O)nc3)n2)cn1,Trypanosoma brucei rhodesiense,,"STIB900, mouse, acute infection","oral, 10 mg/kg daily, 4 days, parasite-free survival 60 days",,cured mice,25%
c1ccc(CSc2ncnc3nc[nH]c23)cc1,Helicobacter pylori,"microbial growth, absorbance",26695,85 µM,,inhibition,83%
CC[C@H](C)[C@H](NC(=O)CNC(=O)[C@H](CCC(=O)O)NC(=O)[C@H](CO)NC(=O)[C@@H](NC(=O)[C@H](CCCNC(=N)N)NC(=O)[C@H](CCCCN)NC(=O)[C@H](CCCCN)NC(=O)[C@H](C)NC(=O)[C@H](CO)NC(=O)[C@H](CC(N)=O)NC(=O)[C@H](CCC(=O)O)NC(=O)[C@H](CC(C)C)NC(=O)[C@H](CCCCN)NC(=O)[C@H](CCCCN)NC(=O)[C@H](C)NC(=O)[C@@H](NC(=O)[C@H](CCCCN)NC(=O)[C@H](CO)NC(=O)[C@H](CC(C)C)NC(=O)[C@H](Cc1c[nH]c2ccccc12)NC(=O)[C@@H](N)CO)[C@@H](C)O)[C@@H](C)CC)C(=O)N[C@@H](C)C(=O)N[C@H](C(=O)N[C@@H](C)C(=O)N[C@H](C(=O)N[C@@H](CCC(N)=O)C(=O)NCC(=O)NCC(=O)N1CCC[C@H]1C(=O)N[C@@H](CCCNC(=N)N)C(=O)O)[C@@H](C)CC)[C@@H](C)CC,Escherichia coli,broth microdilution,,"18 h, 30 clinical isolates",,MIC range,0.125 to 2 µg/mL
CC(/C=C/[C@@]1(C)[C@H](C)CCC(=O)[C@@H]1C)=C\Cc1c(O)c(Cl)c(C)c(C=O)c1O,Wickerhamomyces anomalus,"O2 uptake, inhibitor",mitochondria,together with: succinate 15 mM,,IC50,36 nM
C[C@@H](O)[C@H]1C(=O)N2C(C(=O)O)=C(S[C@@H]3CN[C@H](C(=O)N(C)C)C3)[C@H](C)[C@H]12,Staphylococcus aureus,checkerboard,ATCC 25923,together with: magainin II,,FIC index,0.187
OC(Cn1cncn1)(Cn1cncn1)c1ccc(F)cc1F,Cryptococcus neoformans,,"CN, PBS","2 x MIC, up to 48 h, 37 °C",reference: untreated,time to 1 log10 kill,> 48 h
interferon alfa,hepatitis B virus,"HBeAg secretion, inhibitor",HepG2-NTCP cells,"7 days post-infection, treatment from 24 h pre-infection",,EC50,85 ± 17 nM
Cc1ccc(S(=O)(=O)N2C(=O)CSC2c2ccccc2Br)cc1 (centres unmarked),Streptococcus pneumoniae,broth microdilution,ATCC 49619,,,MIC,128 µg/mL
C[C@H]1c2cccc(O)c2C(=O)C2=C(O)[C@]3(O)C(=O)C(C(N)=O)=C(O)[C@@H](N(C)C)[C@@H]3[C@@H](O)[C@@H]21,Staphylococcus aureus,checkerboard broth microdilution,ATCC 27853,together with: ranalexin,,FIC index,0.25

# A few entries again:
Molecule,organism,test,test system,setting,how to read,quantity,value
N/C(=N\O)c1ccc(-c2cncc(-c3ccc(/C(N)=N\O)nc3)n2)cn1,Trypanosoma brucei rhodesiense,,"STIB900, mouse, acute infection","oral, 10 mg/kg daily, 4 days, parasite-free survival 60 days",,cured mice,25%
c1ccc(CSc2ncnc3nc[nH]c23)cc1,Helicobacter pylori,"microbial growth, absorbance",26695,85 µM,,inhibition,83%
